Experimental data gathered from unrelated publications.
Each numbered part is a random draw from the data of one study; scales do not carry over between parts.

Series 1
Target: Histone acetyltransferase KAT6A, winged helix 2, GST fusion (KAT6A, Homo sapiens, UniProt Q92794, residues 85-181)
Technique: protein binding microarray
Molecule type: double-stranded DNA, one strand shown
Medium: in vitro
Concentration: not given
Notes: 8-mer, flanks averaged, mean of 2 arrays, mostly near background
Relative to: not given
Direction: higher = stronger binding
Construct (chain): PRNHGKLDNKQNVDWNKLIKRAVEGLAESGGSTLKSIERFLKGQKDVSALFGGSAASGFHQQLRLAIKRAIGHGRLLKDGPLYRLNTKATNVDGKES
Strand	E-score
AGCTCCTC	-0.0546
CGCACGGA	0.184
AGACCTCA	-0.0117
CAGGCCTC	-0.217
GGCACCCA	0.142
AACGTAAT	-0.195

Series 2
Target: Interferon regulatory factor 7, full length, phosphomimetic (IRF7, Homo sapiens, UniProt Q92985, residues 1-503, S101K/S471D/S472D/S475D/S476D/S477D/S483D/S484D/S487D)
Technique: protein-binding microarray
Molecule type: double-stranded DNA, one strand shown
Medium: in vitro
Concentration: 250 nM
Notes: 60-bp whole probe
Together with: salmon DNA 0.4 mg/ml
Relative to: random background probes
Direction: higher = stronger binding
Shared flanks, not repeated: GCCTAGCAC … GTCTTGATTCGCTTGACGCTGCTG
Target sequence (chain): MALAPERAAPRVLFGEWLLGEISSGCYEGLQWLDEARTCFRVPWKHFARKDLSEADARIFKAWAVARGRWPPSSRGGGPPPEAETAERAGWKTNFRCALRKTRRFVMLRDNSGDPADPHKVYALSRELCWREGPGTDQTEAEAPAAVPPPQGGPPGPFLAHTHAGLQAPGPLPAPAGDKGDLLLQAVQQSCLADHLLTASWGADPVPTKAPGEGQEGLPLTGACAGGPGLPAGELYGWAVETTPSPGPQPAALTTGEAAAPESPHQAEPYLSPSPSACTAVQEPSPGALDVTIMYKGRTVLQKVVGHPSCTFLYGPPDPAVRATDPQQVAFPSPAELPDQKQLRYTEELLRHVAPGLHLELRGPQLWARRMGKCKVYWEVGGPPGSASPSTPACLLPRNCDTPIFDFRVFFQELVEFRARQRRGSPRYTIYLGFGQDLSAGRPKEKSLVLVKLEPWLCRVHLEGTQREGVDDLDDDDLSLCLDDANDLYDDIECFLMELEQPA
Strand	log fluorescence
TAAGATTTCGGGACTGGATTAGTGCTA	0.63 z-score
GACTATTTCGGGACTGGAGACGTGCTA	0.782 z-score
TCAGTTTTCCTTCATGTACTGTGCTAG	2.44 z-score
GGCGAACTGAGACTGGAGACGTGCTAG	-0.385 z-score
TCACTTCTTTTTTTTCTACTGTGCTAG	1.26 z-score
TTAGGTTTCGGTATCGTTTAGTGCTAG	11.4 z-score
TTTGGTTCCCTTTTCCTTTAGTGCTAG	4.32 z-score
TTGGATTTCAGACTGGATTAGTGCTAG	-0.188 z-score
GTCGGACTGGACACTGGGGACGTGCTA	-0.593 z-score
TTAGAACTGTGGACTGGATTAGTGCTA	-0.732 z-score

Series 3
Target: RNA binding protein fox-1 homolog 2, RRM domain, GST-SBP tag (RBFOX2, Homo sapiens, UniProt O43251-10, residues 100-194)
Technique: RNA Bind-n-Seq
Molecule type: RNA
Medium: in vitro
Concentration: 365 nM
Notes: natural RNA segment, single round, ends assumed
Relative to: no-protein control
Direction: higher = stronger binding
Shared flanks, not repeated: GGGAGUUCUACAGUCCGACGAUC … UGGAAUUCUCGGGUGCCAA
Residues (chain): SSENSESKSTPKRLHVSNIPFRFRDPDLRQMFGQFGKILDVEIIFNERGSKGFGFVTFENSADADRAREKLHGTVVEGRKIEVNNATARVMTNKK
Strand	RBNS enrichment (R)
AUCUUCCUCCCCUUUCUCCCUUUCACUCCUUCCCCUGCGGACACAUUCUAGUUCCUGCAGGGCUUAUUUAAAAAGAAGAUGGUCAAGUUUGUAAAAUAUUUGUUCGUGCU	1.76
CCUGGCCACUGGGUGCCACCCAGCCUGUGUGCCCUCCCUGGGGCUGAGGAGGCAGGCGGCUGCUAGUUGUGGCCCUUCCUGGAAGGAGAGGCCUGCAGGGCUCGACCCUG	0.228
GAUGUCUUCAAAAAAAAAUCAACAUGCAGAAUGGAAUUUGCAAUAAAGGCUUUUCUAAAACUGGCUCUUUCUGCCCAUCUUCCUCUUCACUCCUUCAUAGAAGACAGCAU	0.365
CUCUGGGAUGCUCUUCAUUAUCUCAAUGCCUGUGCCAUGAAGAUAGAAAACUGUAAGCUAACAUUUAAGAUGUUUCUUCUGGAAGGAAAGUGAGCAGGAACAAGUUAUAU	0.748
CACACACAGACACACAUACACCCAUGAUGUGAGCAAACACACACACGUGCGCCUUCAUAGCCCAGCCAAGGGCAUGCAGGCAGGGUGUGCUGCCUGAGAUGGCACCUCCC	0.476
GCUCCACCUUUCAGCCCACGUCACGUGUAGUGUCCAUUUUGUGAAGCCCUGUUGUGCCACAGAGUGUAGCCAGGUCCCCCUGCAGCUAGUCCUAGUGAACCUCACCCCGA	0.378
CUUUGUAGCAUAUGCCUGUGGUCCCAGCUACUGAGGAGGCUGAGGUGGGAGGAUUGCUUGAGCCCAGGAGGCAGAGGUUGCAGUGAGCCAAGGUCACGUCACUGCACUCU	1.3
GCCAGACAAGCCGAGAGCCCCUUCUGUUGUGGGCAGCCUGGGUUUGCAGGCCUGCACAGGCUGGGGAGUCCUCAGGACCUUAGGACCUUCAUCCAGGGGCUGGGCUUCGG	0.826

Single results of other studies
Molecule	target	test	system	setting	how to read	endpoint	result
EDLLKELQKQLEE	human cyclin B2	peptide binding, yeast competitive growth sequencing	peptide, Saccharomyces cerevisiae, cyclin B2-Cln2 fusion	concentration not given	relative to: Cln2 fusion control, direction not given	binding enrichment score	-0.697
PhoQ, residues 284 288 289 292 302 303 NLSRDF	PhoP, residues 12 14 15 18 19 HEGLL (Escherichia coli, UniProt P23836)	Sort-seq, refers to: YFP reporter	E. coli	PhoQ-PhoP variant library, together with: 10 µM Mg2+	relative to: high Mg2+ state, higher = stronger signaling	fold induction	17
REPARRLFLFGEE	human cyclin B2	peptide binding, yeast competitive growth sequencing	peptide, Saccharomyces cerevisiae, cyclin B2-Cln2 fusion	concentration not given	relative to: Cln2 fusion control, direction not given	binding enrichment score	0.186
